Assay results pooled from the literature.
Numbers after ± are the reported error.
Target: Voltage-gated inwardly rectifying potassium channel KCNH2 (KCNH2, Homo sapiens, UniProt Q12809)
Sequence of UniProt Q12809 (whole entry, looked up): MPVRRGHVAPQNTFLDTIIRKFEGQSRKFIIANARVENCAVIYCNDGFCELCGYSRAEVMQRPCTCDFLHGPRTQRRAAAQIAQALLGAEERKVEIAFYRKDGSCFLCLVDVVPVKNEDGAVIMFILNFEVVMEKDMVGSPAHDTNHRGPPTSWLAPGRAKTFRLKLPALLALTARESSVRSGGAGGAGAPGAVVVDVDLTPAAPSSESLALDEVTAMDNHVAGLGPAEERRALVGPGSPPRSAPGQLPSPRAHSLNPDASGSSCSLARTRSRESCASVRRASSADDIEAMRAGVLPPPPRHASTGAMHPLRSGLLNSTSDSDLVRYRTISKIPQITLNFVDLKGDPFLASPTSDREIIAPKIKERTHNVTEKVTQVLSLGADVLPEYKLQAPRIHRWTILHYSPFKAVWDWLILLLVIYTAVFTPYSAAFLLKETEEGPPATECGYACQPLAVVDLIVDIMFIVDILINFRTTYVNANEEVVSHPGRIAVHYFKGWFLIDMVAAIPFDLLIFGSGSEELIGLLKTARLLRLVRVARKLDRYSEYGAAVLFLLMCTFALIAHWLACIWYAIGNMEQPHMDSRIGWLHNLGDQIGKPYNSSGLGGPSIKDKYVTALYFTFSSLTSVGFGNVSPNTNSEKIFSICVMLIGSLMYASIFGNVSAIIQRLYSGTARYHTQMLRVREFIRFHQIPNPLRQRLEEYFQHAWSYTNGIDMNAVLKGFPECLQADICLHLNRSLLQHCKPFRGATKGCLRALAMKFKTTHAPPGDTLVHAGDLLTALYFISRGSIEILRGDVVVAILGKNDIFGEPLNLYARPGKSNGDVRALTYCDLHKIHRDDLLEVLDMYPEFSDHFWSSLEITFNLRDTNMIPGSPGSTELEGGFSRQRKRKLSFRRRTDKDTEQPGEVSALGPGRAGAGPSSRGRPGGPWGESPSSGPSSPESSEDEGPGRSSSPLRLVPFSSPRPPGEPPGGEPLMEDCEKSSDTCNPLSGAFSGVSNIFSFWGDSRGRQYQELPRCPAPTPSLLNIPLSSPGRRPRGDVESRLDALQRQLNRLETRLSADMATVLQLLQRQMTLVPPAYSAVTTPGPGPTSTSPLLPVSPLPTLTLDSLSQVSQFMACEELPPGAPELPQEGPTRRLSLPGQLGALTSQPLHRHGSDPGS

CCn1cc(-c2ccnc(Nc3ccc(N4CCNCC4)cc3)n2)c(-c2cccnc2)n1
inhibition (automated patch clamp; 10 µM): 27%

CC(C)Cn1c(SCC(=O)N2CCc3ccccc3C2)nc2cc(Cl)ccc2c1=O
inhibition (tracer binding, competition binding; 10 µM): 86%

CCC(=O)N(C)c1ccc(Cl)c(Cl)c1
inhibition (ion current, automated patch clamp; HEK293 expressing hERG; 0.5 to 100 µM, at all concentrations): ≤ 30%

Cc1cc(O)cc(O)c1C(=O)c1c2c3c(c(O)cc(C)c3oc1=O)C(=O)c1c(O)cc(O)cc1-2
inhibition (potassium current, inhibitor; HEK293; 1.25 µM, pH 7.4): 0.9 ± 1.6%

CS(=O)(=O)c1sc(NC(=O)Nc2ccc(Cl)cc2)c2c1C=CCC2
inhibition (ligand displacement, FP; 10 µM, cell membranes): 4%

N[C@H]1CCCc2c1[nH]c1ccc(Cl)cc21
inhibition (ligand displacement, radioligand; 10 µM): 72.5%

COc1ccc(S(=O)(=O)N2CCc3ccccc3C2)cc1N1CCN(C(=O)c2ccc(F)cc2C(F)(F)F)CC1
inhibition (automated patch clamp; 0.1 to 10 µM): < 20%

CC12CC3CC(C)(C1)CC(NC(=O)Nc1ccc(C(=O)N4CCC[C@H](C(N)=O)C4)cc1F)(C3)C2
inhibition (ion current, inhibitor, patch clamp; HEK293; 3 µM): 0.46%

Some of these lines once more:
CC12CC3CC(C)(C1)CC(NC(=O)Nc1ccc(C(=O)N4CCC[C@H](C(N)=O)C4)cc1F)(C3)C2
inhibition (ion current, inhibitor, patch clamp; HEK293; 3 µM): 0.46%
